Results from different studies.
Each numbered part is a random draw from the data of one study; scales do not carry over between parts. Changes are numbered by the printed parent chain.

Study 1 — observed: phage display binding; method: phage display panning NGS; form: peptide; relative to: OGT-panned over input library
Target: UDP-N-acetylglucosamine--peptide N-acetylglucosaminyltransferase 110 kDa subunit (OGT, Homo sapiens, UniProt O15294)
Chain of UniProt O15294 (whole entry, looked up): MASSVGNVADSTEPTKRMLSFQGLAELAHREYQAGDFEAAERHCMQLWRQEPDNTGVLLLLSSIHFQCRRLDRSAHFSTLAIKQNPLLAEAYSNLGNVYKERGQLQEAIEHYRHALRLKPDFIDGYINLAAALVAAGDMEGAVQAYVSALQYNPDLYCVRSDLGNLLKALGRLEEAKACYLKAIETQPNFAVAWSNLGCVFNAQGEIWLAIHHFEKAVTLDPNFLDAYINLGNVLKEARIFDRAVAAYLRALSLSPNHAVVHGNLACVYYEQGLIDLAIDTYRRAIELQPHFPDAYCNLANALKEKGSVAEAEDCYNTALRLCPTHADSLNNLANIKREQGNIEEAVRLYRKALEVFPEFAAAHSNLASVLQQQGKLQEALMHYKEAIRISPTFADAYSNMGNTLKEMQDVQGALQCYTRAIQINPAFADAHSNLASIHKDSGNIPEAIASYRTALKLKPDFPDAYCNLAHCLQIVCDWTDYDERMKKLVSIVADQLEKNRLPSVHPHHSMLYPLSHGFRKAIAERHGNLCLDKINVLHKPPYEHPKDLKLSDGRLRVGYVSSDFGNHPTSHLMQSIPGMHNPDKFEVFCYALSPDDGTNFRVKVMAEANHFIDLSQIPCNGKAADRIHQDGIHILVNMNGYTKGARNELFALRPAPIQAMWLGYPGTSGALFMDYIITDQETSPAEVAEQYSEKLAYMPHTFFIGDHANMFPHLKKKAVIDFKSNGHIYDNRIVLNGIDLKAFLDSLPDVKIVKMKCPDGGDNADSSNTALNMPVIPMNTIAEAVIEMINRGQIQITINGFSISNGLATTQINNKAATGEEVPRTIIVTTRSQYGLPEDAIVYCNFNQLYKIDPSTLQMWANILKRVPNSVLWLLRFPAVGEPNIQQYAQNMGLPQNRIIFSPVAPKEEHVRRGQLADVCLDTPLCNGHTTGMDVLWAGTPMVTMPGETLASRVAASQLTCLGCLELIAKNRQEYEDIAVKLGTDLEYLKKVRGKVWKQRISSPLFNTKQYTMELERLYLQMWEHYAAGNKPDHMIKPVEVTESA
| Molecule | log2 fold enrichment |
| --- | --- |
| HSWHYYHIEHTAAHE | 2.63 |
| GHFPVLHNTYQHHHQ | 3.1 |
| HSWQHHHIMYEVGEG | 3.32 |
| RPITSAYQPSYQIVL | 2.13 |
| HYMSHPIHLFKGHHN | 2.09 |
| NYPVHNHDFFEHHHI | 6.02 |
| TWQWNAHHHHGMSGV | 3.68 |
| YLIEPPKRHHHYHN | 3.24 |
| TMQHQTHMVNHTWWH | 2.7 |
| NFLPFYAIQTFNNAT | 2.26 |
| HILVPMRPMTHHHAV | 3.07 |
| QHPLHHDMHHMRVMD | 2.45 |
| DYKPKYQITAAEAG | 2.85 |
| VLQPYLPEYQIYPNY | 2.67 |
| DTYEPVYQITPRADT | 2.09 |
| WQMHHDAYYWDHHLH | 6.23 |
| HDHNKWAVNQHGWHV | 3.09 |

Study 2 — method: RNAcompete; form: RNA; matrix: in vitro; concentration: 20 nM; setting: 7-mer, probes averaged, single round; relative to: mean of 7-mers; reading: higher = stronger binding
Target: PABPC1L2, full length, GST fusion (mouse, UniProt A0ABA7IW68)
Construct (chain): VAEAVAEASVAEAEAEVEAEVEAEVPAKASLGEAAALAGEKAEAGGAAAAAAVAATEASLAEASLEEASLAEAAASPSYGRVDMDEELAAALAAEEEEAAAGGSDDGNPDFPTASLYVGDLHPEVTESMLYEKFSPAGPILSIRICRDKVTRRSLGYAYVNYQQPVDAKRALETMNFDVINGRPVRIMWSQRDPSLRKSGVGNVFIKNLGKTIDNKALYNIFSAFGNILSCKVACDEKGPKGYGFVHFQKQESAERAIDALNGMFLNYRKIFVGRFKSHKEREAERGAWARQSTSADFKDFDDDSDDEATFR
| Sequence | 7-mer Z-score |
| --- | --- |
| GGACCGC | -0.0808 |
| CGUCAAC | -0.222 |
| CUACUCC | -0.209 |
| CGGCAAC | -0.137 |
| GUACUCU | -0.354 |
| UGUAAGU | -0.144 |
| UAUCCGC | -0.36 |
| UAAACGG | 0.204 |

Study 3 — method: universal PBM; form: double-stranded DNA, one strand shown; matrix: in vitro; concentration: not given; reading: higher = stronger binding
Target: Sal-like protein 4, full length isoform B (SALL4, Homo sapiens, UniProt Q9UJQ4-2, residues 1-616)
Setting: 8-mer, flanks averaged, mean of replicates
| Sequence | E-score |
| --- | --- |
| AACGAAGG | -0.148 |
| GAGGAGCA | -0.261 |
| CGGCTTTC | -0.278 |
| GGTCTGGA | -0.113 |
| AAGTTCCT | -0.0436 |
| CATTATCG | 0.0992 |
| AAGTGGGT | -0.162 |
| AAACCAGA | -0.0324 |

Study 4 — target: tungstate, free oxyanion; method: microfluidic competitive inhibition; matrix: in vitro, cell-free expressed; concentration: not given; reading: lower = stronger binding
Setting: derived from inhibition constants, unchanged parent 2230 nM
Starting sequence: PafA, mature enzyme, eGFP fusion (Elizabethkingia meningoseptica, UniProt Q9KJX5); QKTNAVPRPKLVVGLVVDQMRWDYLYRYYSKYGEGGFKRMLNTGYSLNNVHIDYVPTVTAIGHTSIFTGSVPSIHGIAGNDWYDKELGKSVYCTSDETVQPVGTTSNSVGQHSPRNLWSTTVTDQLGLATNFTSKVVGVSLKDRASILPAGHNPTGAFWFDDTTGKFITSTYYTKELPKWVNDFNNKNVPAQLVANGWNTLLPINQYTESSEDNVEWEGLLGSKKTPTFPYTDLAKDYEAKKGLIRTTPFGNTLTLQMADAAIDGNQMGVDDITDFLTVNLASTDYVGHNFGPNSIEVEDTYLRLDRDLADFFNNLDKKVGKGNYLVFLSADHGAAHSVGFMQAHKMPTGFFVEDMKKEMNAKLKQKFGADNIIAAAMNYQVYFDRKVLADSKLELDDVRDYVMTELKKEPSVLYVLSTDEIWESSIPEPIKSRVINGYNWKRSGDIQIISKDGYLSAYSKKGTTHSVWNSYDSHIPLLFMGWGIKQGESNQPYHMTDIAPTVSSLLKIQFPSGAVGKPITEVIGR
| Variant | oxyanion analog dissociation constant |
| --- | --- |
| Y439V | 2.1 µM |
| E297V | 553 nM |
| V353G | 2.03 µM |
| L221V | 2.29 µM |
| S106V | 2.36 µM |
| L479G | 2.74 µM |
| K442V | 2.09 µM |
| R144V | > 907 µM |
| M360V | 2.06 µM |
| K241G | 2.1 µM |
| S460V | 2.96 µM |
| V413G | 1.7 µM |
| T120V | 1.24 µM |
| L407G | 1.86 µM |
| I436G | 903 nM |
| V91A | 2.3 µM |
| E218G | 590 nM |
| N116V | 2.42 µM |
| D233V | 2.73 µM |
| F158V | 2.11 µM |
| D272V | 2.47 µM |
| P249V | 1.84 µM |
| K461V | 2.85 µM |
| N196G | 2.31 µM |
| S474G | 2.18 µM |

A few entries again (study 4):
| Variant | oxyanion analog dissociation constant |
| --- | --- |
| D233V | 2.73 µM |
| N196G | 2.31 µM |
| F158V | 2.11 µM |
| K461V | 2.85 µM |
| K442V | 2.09 µM |
| E218G | 590 nM |
